Published values gathered from unrelated publications.
Each line is one published result; not all experiments were run side by side. Numbers after ± are the reported error.
DNA polymerase catalytic subunit: DNA polymerase catalytic subunit (Human cytomegalovirus, UniProt P08546)
MCL1: Induced myeloid leukemia cell differentiation protein Mcl-1 (MCL1, Homo sapiens, UniProt Q07820)
UniProt Q07820, sequence (whole entry, looked up): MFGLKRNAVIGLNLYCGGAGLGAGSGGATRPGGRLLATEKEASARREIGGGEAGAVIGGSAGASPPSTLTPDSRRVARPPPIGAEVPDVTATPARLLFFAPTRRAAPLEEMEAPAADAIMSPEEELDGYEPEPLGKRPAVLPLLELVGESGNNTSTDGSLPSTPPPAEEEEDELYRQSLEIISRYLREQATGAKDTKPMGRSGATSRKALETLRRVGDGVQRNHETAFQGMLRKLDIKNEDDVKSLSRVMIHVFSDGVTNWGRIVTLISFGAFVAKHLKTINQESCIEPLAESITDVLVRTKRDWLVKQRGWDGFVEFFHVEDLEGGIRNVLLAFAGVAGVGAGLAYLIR
Lysine--tRNA ligase, cytoplasmic: Lysine--tRNA ligase, cytoplasmic (Arabidopsis thaliana, UniProt Q9ZPI1)
UniProt Q9ZPI1, sequence (whole entry, looked up): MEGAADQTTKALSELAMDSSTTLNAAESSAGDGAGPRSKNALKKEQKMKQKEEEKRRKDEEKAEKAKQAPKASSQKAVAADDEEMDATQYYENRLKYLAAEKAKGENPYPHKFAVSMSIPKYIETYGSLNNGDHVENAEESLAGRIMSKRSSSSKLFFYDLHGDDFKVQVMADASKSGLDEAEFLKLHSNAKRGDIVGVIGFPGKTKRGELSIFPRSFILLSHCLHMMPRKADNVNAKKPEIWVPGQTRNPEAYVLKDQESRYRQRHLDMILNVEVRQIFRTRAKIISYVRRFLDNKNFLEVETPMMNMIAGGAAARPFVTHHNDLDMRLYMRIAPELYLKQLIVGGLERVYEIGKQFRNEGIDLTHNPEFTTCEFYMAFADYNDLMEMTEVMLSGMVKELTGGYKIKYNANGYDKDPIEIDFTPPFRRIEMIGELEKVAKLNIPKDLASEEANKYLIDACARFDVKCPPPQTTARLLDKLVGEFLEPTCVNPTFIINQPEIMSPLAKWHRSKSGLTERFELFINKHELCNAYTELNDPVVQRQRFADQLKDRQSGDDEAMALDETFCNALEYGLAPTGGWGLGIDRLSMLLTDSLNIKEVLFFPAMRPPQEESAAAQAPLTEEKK
DRD2: D(2) dopamine receptor (DRD2, Homo sapiens, UniProt P14416)
UniProt P14416, sequence (whole entry, looked up): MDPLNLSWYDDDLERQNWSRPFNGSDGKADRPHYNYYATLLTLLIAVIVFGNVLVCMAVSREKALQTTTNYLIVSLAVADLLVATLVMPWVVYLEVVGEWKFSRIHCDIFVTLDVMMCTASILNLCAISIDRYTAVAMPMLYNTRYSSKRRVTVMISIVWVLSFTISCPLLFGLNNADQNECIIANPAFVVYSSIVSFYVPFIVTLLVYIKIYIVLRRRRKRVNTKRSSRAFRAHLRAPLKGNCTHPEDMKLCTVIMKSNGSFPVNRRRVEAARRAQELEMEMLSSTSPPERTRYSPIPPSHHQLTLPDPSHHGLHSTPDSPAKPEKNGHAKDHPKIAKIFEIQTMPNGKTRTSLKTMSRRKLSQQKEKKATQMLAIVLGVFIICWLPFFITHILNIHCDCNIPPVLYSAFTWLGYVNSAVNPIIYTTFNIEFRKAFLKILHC
PTGS2: Prostaglandin G/H synthase 2 (PTGS2, Homo sapiens, UniProt P35354)
UniProt P35354, sequence (whole entry, looked up): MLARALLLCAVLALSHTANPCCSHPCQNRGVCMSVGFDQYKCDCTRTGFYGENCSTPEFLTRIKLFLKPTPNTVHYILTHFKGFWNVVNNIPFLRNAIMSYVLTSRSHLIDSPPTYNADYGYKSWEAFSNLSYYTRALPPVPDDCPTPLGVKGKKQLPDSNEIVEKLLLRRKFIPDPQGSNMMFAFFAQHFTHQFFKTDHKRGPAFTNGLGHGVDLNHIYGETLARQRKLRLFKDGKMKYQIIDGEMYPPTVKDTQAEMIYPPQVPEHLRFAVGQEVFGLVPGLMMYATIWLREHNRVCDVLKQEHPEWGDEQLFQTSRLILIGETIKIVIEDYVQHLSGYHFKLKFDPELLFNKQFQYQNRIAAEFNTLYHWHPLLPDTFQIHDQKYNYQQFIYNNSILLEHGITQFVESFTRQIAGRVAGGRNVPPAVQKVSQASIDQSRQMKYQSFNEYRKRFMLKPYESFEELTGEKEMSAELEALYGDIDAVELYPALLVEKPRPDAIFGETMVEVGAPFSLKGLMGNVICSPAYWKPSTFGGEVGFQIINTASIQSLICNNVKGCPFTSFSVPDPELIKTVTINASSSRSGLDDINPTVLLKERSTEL
60 kDa heat shock protein, mitochondrial with HSP10: 60 kDa heat shock protein, mitochondrial, with HSP10 (Homo sapiens, UniProt P10809)
UniProt P10809, sequence (whole entry, looked up): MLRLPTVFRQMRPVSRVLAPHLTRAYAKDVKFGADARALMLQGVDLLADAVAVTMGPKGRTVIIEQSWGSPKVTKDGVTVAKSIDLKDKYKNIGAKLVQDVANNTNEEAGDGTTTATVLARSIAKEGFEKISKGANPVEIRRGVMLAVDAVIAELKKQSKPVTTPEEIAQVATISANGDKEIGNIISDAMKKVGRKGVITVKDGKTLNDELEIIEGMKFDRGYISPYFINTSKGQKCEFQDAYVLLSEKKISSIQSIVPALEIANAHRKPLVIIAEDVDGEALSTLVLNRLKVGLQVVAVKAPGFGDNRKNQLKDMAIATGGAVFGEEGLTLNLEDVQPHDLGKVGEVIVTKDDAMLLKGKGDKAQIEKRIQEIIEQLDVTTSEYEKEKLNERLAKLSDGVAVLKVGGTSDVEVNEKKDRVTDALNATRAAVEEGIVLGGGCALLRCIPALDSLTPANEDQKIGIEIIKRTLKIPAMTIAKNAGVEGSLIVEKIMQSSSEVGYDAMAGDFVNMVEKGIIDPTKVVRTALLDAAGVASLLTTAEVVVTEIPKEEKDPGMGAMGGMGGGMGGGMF
XDH: Xanthine dehydrogenase/oxidase (XDH, Bos taurus, UniProt P80457)
CSNK1E: Casein kinase I isoform epsilon (CSNK1E, Homo sapiens, UniProt P49674)
UniProt P49674, sequence (whole entry, looked up): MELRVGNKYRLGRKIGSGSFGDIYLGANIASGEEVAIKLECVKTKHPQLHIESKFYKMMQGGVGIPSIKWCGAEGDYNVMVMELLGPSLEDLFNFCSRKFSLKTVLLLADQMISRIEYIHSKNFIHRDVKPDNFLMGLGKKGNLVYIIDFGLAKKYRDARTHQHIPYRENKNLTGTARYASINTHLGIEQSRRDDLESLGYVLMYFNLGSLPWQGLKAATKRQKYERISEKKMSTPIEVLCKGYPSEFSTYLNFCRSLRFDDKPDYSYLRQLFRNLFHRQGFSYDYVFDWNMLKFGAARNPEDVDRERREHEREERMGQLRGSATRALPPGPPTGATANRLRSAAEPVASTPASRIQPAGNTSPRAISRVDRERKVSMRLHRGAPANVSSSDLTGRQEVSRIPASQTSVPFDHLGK
TAF1L BD2: Transcription initiation factor TFIID subunit 1-like, BD2 (TAF1L, Homo sapiens, UniProt Q8IZX4)
SIRT5: NAD-dependent protein deacylase sirtuin-5, mitochondrial (SIRT5, Homo sapiens, UniProt Q9NXA8)
UniProt Q9NXA8, sequence (whole entry, looked up): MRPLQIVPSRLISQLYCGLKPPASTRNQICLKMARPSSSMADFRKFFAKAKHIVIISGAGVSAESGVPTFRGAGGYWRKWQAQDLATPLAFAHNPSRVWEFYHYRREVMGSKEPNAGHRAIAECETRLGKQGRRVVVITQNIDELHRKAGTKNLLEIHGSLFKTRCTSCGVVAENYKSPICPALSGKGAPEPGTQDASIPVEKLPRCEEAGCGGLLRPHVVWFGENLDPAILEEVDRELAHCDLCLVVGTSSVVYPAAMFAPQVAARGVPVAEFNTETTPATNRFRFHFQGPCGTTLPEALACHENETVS
NTRK2: BDNF/NT-3 growth factors receptor (NTRK2, Homo sapiens, UniProt Q16620)
UniProt Q16620, sequence (whole entry, looked up): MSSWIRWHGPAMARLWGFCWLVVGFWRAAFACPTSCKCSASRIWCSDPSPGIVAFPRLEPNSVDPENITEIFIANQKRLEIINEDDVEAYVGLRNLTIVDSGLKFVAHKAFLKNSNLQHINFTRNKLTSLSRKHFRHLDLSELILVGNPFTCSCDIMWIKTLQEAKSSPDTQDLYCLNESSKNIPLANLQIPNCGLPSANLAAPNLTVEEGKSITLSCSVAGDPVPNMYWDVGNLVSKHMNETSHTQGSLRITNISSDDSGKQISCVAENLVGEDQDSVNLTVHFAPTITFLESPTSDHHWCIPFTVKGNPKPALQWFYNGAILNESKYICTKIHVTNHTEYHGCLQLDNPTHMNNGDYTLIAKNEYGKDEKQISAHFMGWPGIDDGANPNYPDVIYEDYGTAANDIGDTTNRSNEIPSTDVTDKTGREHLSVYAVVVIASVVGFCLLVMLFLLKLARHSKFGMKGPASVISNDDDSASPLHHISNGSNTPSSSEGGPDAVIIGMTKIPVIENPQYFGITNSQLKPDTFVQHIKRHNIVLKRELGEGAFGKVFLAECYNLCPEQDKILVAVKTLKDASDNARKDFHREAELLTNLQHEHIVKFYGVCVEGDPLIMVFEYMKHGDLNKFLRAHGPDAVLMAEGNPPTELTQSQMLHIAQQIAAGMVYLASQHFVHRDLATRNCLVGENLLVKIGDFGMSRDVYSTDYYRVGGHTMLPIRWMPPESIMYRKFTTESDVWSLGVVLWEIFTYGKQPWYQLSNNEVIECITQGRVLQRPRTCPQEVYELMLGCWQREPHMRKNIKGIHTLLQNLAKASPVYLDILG
CDK6 with cyclin D1: Cyclin-dependent kinase 6, with cyclin D1 (CDK6, Homo sapiens, UniProt Q00534)
UniProt Q00534, sequence (whole entry, looked up): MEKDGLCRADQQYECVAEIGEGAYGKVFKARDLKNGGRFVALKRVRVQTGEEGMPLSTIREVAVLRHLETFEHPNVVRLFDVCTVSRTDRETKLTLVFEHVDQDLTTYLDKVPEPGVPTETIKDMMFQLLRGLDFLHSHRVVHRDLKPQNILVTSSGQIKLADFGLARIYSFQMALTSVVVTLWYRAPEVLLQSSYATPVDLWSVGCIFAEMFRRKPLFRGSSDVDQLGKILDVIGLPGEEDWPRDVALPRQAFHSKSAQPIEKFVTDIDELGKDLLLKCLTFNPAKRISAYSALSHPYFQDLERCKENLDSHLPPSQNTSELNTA
CYP2C19: Cytochrome P450 2C19 (CYP2C19, Homo sapiens, UniProt P33261)
UniProt P33261, sequence (whole entry, looked up): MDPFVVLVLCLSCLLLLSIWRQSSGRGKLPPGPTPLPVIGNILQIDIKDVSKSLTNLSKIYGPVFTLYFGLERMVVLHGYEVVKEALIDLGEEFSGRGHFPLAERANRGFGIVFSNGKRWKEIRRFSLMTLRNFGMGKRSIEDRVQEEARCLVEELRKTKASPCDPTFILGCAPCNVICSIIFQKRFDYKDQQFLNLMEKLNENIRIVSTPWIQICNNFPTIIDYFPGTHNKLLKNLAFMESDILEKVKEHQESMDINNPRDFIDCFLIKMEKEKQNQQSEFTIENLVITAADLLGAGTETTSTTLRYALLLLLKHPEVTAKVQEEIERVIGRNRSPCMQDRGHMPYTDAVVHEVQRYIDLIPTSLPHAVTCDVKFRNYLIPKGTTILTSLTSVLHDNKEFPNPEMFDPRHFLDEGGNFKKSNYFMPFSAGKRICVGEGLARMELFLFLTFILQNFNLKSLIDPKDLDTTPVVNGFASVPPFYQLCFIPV
KRAS with SOS1: GTPase KRas, with SOS1 (KRAS, Homo sapiens, UniProt P01116)

SMILES | target | test | test system | conditions | IC50
CC1(F)CN(C(=O)Cn2c(=O)c(C(=O)NCc3ccc(Cl)cc3)cc3nc(N4CCOC4=O)cnc32)C1 | DNA polymerase catalytic subunit | enzyme activity | – | single determination | 285 nM
COc1ccccc1C[C@@H](Oc1ncnc2sc(-c3ccc(F)cc3)c(-c3ccc(OCCN4CCN(C)CC4)c(Cl)c3C)c12)C(=O)O | MCL1 | – | – | – | 14 nM
Nc1nsc(C(=O)NCC2CCCCC2)c1F | Lysine--tRNA ligase, cytoplasmic | enzyme activity, inhibitor | – | – | 1260 nM
COc1ccc(-c2cc(OCC(=O)N(C)Cc3cccnc3C)nc(-n3nc(C)cc3C)n2)cc1 | Leucyl-cystinyl aminopeptidase (LNPEP, Homo sapiens, UniProt Q9UIQ6) | 9mer peptide trimming, HPLC | – | second phase biphasic | ~100000 nM
Cc1[nH]c(C)c(S(=O)(=O)Nc2ccc(C(F)(F)F)c(Cl)c2)c1C(=O)NCC(F)(F)F | DRD2 | – | – | – | > 100000 nM
CCc1nc(C(N)=O)c(Nc2ccc(N3CCC(N4CCN(C)CC4)CC3)c(OC)c2)nc1NC1CCOCC1 | Solute carrier family 22 member 1 (SLC22A1, Homo sapiens, UniProt O15245) | OCT1-mediated TEA uptake, inhibitor | HEK293 expressing OCT1 | 15 min, together with: radiolabelled tetraethylammonium | 157 nM
CC(C(=O)O)c1ccc(/C=C2\CCCCC2=O)cc1 (centres unmarked) | PTGS2 | inhibitor | – | – | 2880 nM
Cn1ncc2c(Cl)c(C(=O)NCc3ccccc3)cnc21 | 60 kDa heat shock protein, mitochondrial with HSP10 | ATPase activity | – | 30 min, together with: HSP10 | > 250000 nM
Cc1cc(Nc2ccc(C(F)(F)F)cc2)n2ccnc2n1 | Dihydroorotate dehydrogenase (quinone), mitochondrial (DHODH, Homo sapiens, UniProt Q02127) | enzyme activity, inhibitor | – | – | > 100000 nM
COc1ccccc1C[C@@H](Oc1cccc2oc(-c3ccc(F)cc3)c(-c3ccc(OCCN4CCN(C)CC4)c(Cl)c3C)c12)C(=O)O | MCL1 | – | – | – | 820 nM
Cc1[nH]c(C)c(S(=O)(=O)Nc2ccc(C(F)(F)F)c(Cl)c2)c1C(=O)N1C[C@@H](F)[C@H](F)C1 (relative stereo) | DRD2 | – | – | – | > 100000 nM
C=CC(=O)Nc1cccc(Oc2nc(Nc3ccc(N4CCN(C)CC4)cc3)nc3ccoc23)c1 | Phosphatidylinositol 4,5-bisphosphate 3-kinase catalytic subunit delta isoform, with p85alpha (PIK3CD, Homo sapiens, UniProt O00329) | – | – | – | 637 nM
COc1cc(/C=N/n2c(C)nc3ccc(C)cc3c2=O)ccc1OCc1ccccc1 | XDH | enzyme activity, inhibitor | – | – | 145000 ± 5970 nM
COc1cc2c(c(OC)c1OC)-c1c(cc3c(c1OC)OCO3)[C@H](OC(=O)c1ccccc1)[C@@](C)(O)[C@@H](C)C2 | Cytochrome P450 3A5 (CYP3A5, Homo sapiens, UniProt P20815) | midazolam 1'-hydroxylation, inhibitor, recombinant enzyme | – | 15 min, pH 7.4, together with: midazolam 5 µM | 34 ± 1 nM
COc1cc(/C=N/n2c(C)nc3ccc(Br)cc3c2=O)ccc1OCc1ccc(Cl)cc1 | XDH | enzyme activity, inhibitor | – | – | 32200 ± 2120 nM
O=C(Nc1cccnn1)N1CCC(=Cc2cccc(Oc3ccc(C(F)(F)F)cn3)c2)CC1 | Fatty-acid amide hydrolase 1 (FAAH, Homo sapiens, UniProt O00519) | enzyme activity, inhibitor | COS cells expressing human FAAH | 3 h | 3.4 nM
CN1CCN(c2ccc(Nc3ncc4cc(C#N)c(=O)n(C5CCCC5)c4n3)cc2)CC1 | Fibroblast growth factor receptor 3 (FGFR3, Homo sapiens, UniProt P22607) | – | – | – | 126 nM
Oc1c(-c2nc(-c3ccc(F)cc3)c(-c3ccncc3)[nH]2)ccc2ccccc12 | CSNK1E | inhibitor | – | – | 1630 ± 318 nM
Cc1cc2c(cc1N1C(=O)c3cccc4cc(C#N)cc(c34)C1=O)n(C)c(=O)n2C | TAF1L BD2 | HTRF | – | GST-tagged protein | 166 nM

SMILES | target | test | test system | conditions | IC50
O=C1CC(CCNC(=S)NCCCC[C@H](NS(=O)(=O)c2cccc(F)c2)C(=O)N[C@@H](Cc2c[nH]c3ccccc23)C(=O)NC2CCC2)=NO1 | SIRT5 | enzyme activity, inhibitor | – | – | 290 ± 10 nM
[O]=[V]([OH])([OH])[OH] | plasma membrane Ca2+ ATPase human | Ca2+ efflux, inhibitor, Rhod-FF fluorescence | human erythrocytes | pH 7.2, room temperature | 90000 ± 30000 nM
C=Cc1c(N)nsc1C(=O)NCC1CCCCC1 | Lysine--tRNA ligase, cytoplasmic | enzyme activity, inhibitor | – | – | 7940 nM
O=C(CCNC(=S)NCCCC[C@H](NS(=O)(=O)c1cccc(F)c1)C(=O)N[C@@H](Cc1c[nH]c2ccccc12)C(=O)NC1CCC1)NO | SIRT5 | enzyme activity, inhibitor | – | – | 1300 ± 100 nM
O=C(c1c[nH]cc1S(=O)(=O)Nc1ccc(C(F)(F)F)c(Cl)c1)N1CCC(F)(F)C1 | DRD2 | – | – | – | > 100000 nM
CC1(F)CN(C(=O)Cn2c(=O)c(C(=O)NCc3ccc(Cl)cc3)cc3nc(N4CCNC4=O)cnc32)C1 | DNA polymerase catalytic subunit | enzyme activity | – | at least duplicate | 390 nM
O=[N+]([O-])c1ccccc1-c1nc(-c2ccc(F)cc2)c(-c2ccncc2)[nH]1 | CSNK1E | inhibitor | – | – | 33.4 ± 6.9 nM
Cc1cnc(-c2ccc(-c3ccc(NC(=O)Nc4c(F)cc(F)cc4F)cc3F)c3c2C(=O)NC3)[nH]1 | NTRK2 | enzyme activity, inhibitor, mobility shift | – | together with: ATP 1 mM | 8.4 nM
Cc1[nH]c(C)c(S(=O)(=O)Nc2c(Cl)cc(C(F)(F)F)cc2Cl)c1C(=O)N1CCC(F)(F)C1 | DRD2 | – | – | – | > 100000 nM
Fc1ccc(-c2c(-c3ccncc3)ncn2-c2ccc(-c3ccccc3)cc2)cc1 | CSNK1E | inhibitor | – | – | 1970 ± 213 nM
CC1=NOC(CNC(=O)c2cnc3c(c(C)nn3C)c2Cl)C1 (centres unmarked) | 60 kDa heat shock protein, mitochondrial with HSP10 | ATPase activity | – | 30 min, together with: HSP10 | > 250000 nM
CCCCCCCCCCOC(C)=O | uncharacterized protein (Spodoptera exigua, UniProt F1CEY0) | binding, fluorescence competitive binding | – | together with: 1-NPN 2.0 µM | 6740 nM
C[C@@H]1O[C@@H](Oc2c(-c3ccc(O)c(O)c3)oc3cc(O)cc(O)c3c2=O)[C@H](O)[C@H](O)[C@H]1O | α-glucosidase | enzyme activity | – | together with: pNPG substrate | 279 µg/mL
Cc1[nH]c(C)c(S(=O)(=O)Nc2ccc(C(F)(F)F)c(Cl)c2)c1C(=O)N1CC[C@H](F)C1 | DRD2 | – | – | – | > 100000 nM
Cc1cc2c(cc1N1C(=O)c3cccc4c(Cl)ccc(c34)C1=O)n(C)c(=O)n2C | TAF1L BD2 | HTRF | – | GST-tagged protein | 20.9 nM
C[C@H]1CN(C(=O)CC#N)[C@]12CCN(c1ncnc3[nH]ccc13)C2 | Organic anion transporter 3 (SLC22A8, Homo sapiens, UniProt Q8TCC7) | transport, inhibitor | – | – | 6380 nM
CN(C)C(=O)c1cc2cnc(Nc3ccc(-c4cccc5c(=O)cc(N6CCOCC6)oc45)c(F)c3)nc2n1C1CCCC1 | CDK6 with cyclin D1 | inhibitor, HotSpot radiometric kinase | – | together with: 10 µM ATP, cyclin D1 | 228 nM
O=C1CN(c2nc(=O)c3cc(C(F)(F)F)cc([N+](=O)[O-])c3s2)CCN1C1CCCC1 | CYP2C19 | – | – | 60 (unit not given), pH 7.4 | 5520 nM
Cc1cc(Nc2ncc(Cl)c(Nc3ccccc3S(=O)(=O)C(C)C)n2)c(OC(C)C)cc1C1CCNCC1 | NTRK2 | cell-based | – | – | > 9190 nM

SMILES | target | test | test system | conditions | IC50
Cc1nc(-c2cnc(NC(C)C)n(C)c2=O)ccc1Oc1ccnc(-c2cnn(C)c2)c1 | CYP2C19 | direct inhibition, inhibitor | – | no preincubation | > 100000 nM
Cc1[nH]c(C)c(S(=O)(=O)Nc2cc(Cl)c(Cl)c(Cl)c2)c1C(=O)N1CCC(F)(F)C1 | DRD2 | – | – | – | > 100000 nM
CN(C)C(=O)c1cc2cnc(Nc3cc(C(=O)O)cc(-c4cccc5c(=O)cc(N6CCOCC6)oc45)c3)nc2n1C1CCCC1 | CDK6 with cyclin D1 | inhibitor, HotSpot radiometric kinase | – | together with: 10 µM ATP, cyclin D1 | > 10000 nM
Cc1c(-c2ccccc2)cc(-c2ccccc2)n1-c1ccccc1 | PTGS2 | enzyme activity, inhibitor, fluorogenic resorufin | – | – | 11200 ± 200 nM
CN(C)C(=O)c1cc2cnc(Nc3ccc4c(=O)cc(N5CCNCC5)oc4c3)nc2n1C1CCCC1 | CDK6 with cyclin D1 | inhibitor, HotSpot radiometric kinase | – | together with: 10 µM ATP, cyclin D1 | 11 nM
C[C@H]1CNCCN1c1cccc(-c2noc([C@@]3(C)CCCc4sc(N)c(C#N)c43)n2)n1 | KRAS with SOS1 | KRAS wild type-SOS1 interaction, inhibitor, AlphaScreen | – | geometric mean | 53 nM
Nc1nsc(C(=O)NC2CCC3(CC2)CC3(F)F)c1Cl (centres unmarked) | Lysine--tRNA ligase, cytoplasmic | enzyme activity, inhibitor | – | – | > 100000 nM
C=CCN(CC=C)C(=O)c1c(C)[nH]c(C)c1S(=O)(=O)Nc1ccc(C(F)(F)F)c(Cl)c1 | DRD2 | – | – | – | > 100000 nM
C=CCn1c(Br)c(-c2cccc(Cl)c2C)c2c(N[C@H](Cc3ccccc3)C(=O)O)ncnc21 (single isomer, unassigned) | MCL1 | – | – | – | 2500 nM
CCn1c(-c2nc3ccc(C(=O)N4CCCC(N)C4)cc3n2C)cc2ccccc21 (centres unmarked) | Kappa-type opioid receptor (OPRK1, Homo sapiens, UniProt P41145) | antagonist, GTPγS binding | – | – | > 100000 nM
C=C(Cl)c1c(N)nsc1C(=O)NCC1CCCCC1 | Lysine--tRNA ligase, cytoplasmic | enzyme activity, inhibitor | – | – | 12600 nM
Cc1ccc2[nH]nc(-c3nnc(Nc4ccc(Cl)c(Br)c4)s3)c2c1 | α-glucosidase | enzyme activity, inhibitor | – | pH 6.8, together with: p-nitrophenyl-α-D-glucopyranoside | 10200 ± 1500 nM
COCCN1CCN(c2nccc(-c3noc([C@@]4(C)CCCc5sc(N)c(C#N)c54)n3)n2)[C@@H](C)C1 | KRAS with SOS1 | KRAS wild type-SOS1 interaction, inhibitor, AlphaScreen | – | geometric mean | 328 nM
COc1cc(N2CCC(N3CCN(C)CC3)CC2)ccc1Nc1ncc(Cl)c(Nc2ccccc2P(C)(C)=O)n1 | NTRK2 | enzyme activity, inhibitor | – | together with: 1 mM ATP | > 3300 nM
Cn1cnc(Cn2ccc3ccc(CNCc4[nH]c5ccccc5c4[C@H]4NC(=O)c5ccc(O)cc54)cc32)c1 | GTPase KRas, GppNHp; with RAF1 RBD (KRAS, Homo sapiens, UniProt P01116, A146T) | HTRF | – | – | 5900 ± 1900 nM
Cc1[nH]c(C)c(S(=O)(=O)Nc2ccc(C(F)(F)F)c3ncccc23)c1C(=O)N1CCC(F)(F)C1 | DRD2 | – | – | – | > 100000 nM
Cc1cc2c(cc1N1C(=O)c3cccc4cc(Br)cc(c34)C1=O)n(C)c(=O)n2C | TAF1L BD2 | HTRF | – | GST-tagged protein | 96.8 nM
C[C@]1(c2nc(-c3cccc(N4CCNCC4)c3)no2)CCCc2sc(N)c(C#N)c21 | GTPase KRas, with SOS1 (KRAS, Homo sapiens, UniProt P01116, C118S/G12V) | KRAS G12V-SOS1 interaction, inhibitor, AlphaScreen | – | geometric mean | 319 nM
